Assay results pooled from the literature.
Lines come from different studies, so protocols differ. Values joined by “and” are separate records of one study, mostly repeats; a detail may differ.

Structure (SMILES) | test | test system | conditions | scale | quantity | value
CN(C)C(=O)c1cc2cnc(Nc3ccc(N4CCNCC4)cn3)nc2n1C1CCCC1 | RNA-seq GSEA, measured: HALLMARK_PROTEIN_SECRETION gene set | MB002 tumour | concentration not given | reference: vehicle, direction not given | normalized enrichment score | -1.1
O=C(O)CNC(=O)Cc1ccccc1 |  | ventricular cardiomyocytes, C57BL/6 mouse | dose not given, 0.06 s |  | sarcomere length | 1.72 µm
COc1nc(-c2cccc(-c3ccccc3)c2C)ccc1CNCCNC(=O)CCCCCCCCCCC(=O)N1CCN(CCNC(=O)c2cc3c(=O)n4cccc(C)c4nc3n(CCc3cccs3)c2=N)CC1 | flow cytometry, measured: CD3, CD8 | mouse tumour model, tumour tissue | dose not given | reference: control | CD3+ and CD8+ T cell count | increased
c1ccc(-c2n[nH]cc2-c2ccnc3ccccc23)nc1 | kinase binding, competitor, MIB/MS competition, measured: CTK1 | Candida albicans cell lysate | 100 nM | reference: DMSO | log2 fold change | 0.64
C[C@H]1O[C@@H](O[C@H]2CC[C@@]3(C)[C@@H](CC[C@]4(C)[C@@H]3C=C[C@]35OC[C@@]6(CCC(C)(C)C[C@H]63)[C@@H](O)C[C@]54C)[C@]2(C)CO)[C@H](O)[C@@H](O[C@@H]2O[C@H](CO)[C@@H](O)[C@H](O)[C@H]2O)[C@H]1O |  | chronic-plus-binge ethanol mice, liver | oral, 5 mg/kg/day for 7 d, 168 h |  | triglyceride level | 0.116 mmol/g protein and 0.249 mmol/g protein and 0.245 mmol/g protein and 0.141 mmol/g protein and 0.24 mmol/g protein and 0.16 mmol/g protein
N#Cc1ccc2c(c1)[C@H]1CCCN(C(=O)c3ccc4[nH]cnc4c3)[C@H]1C2 | measured: 1,5-anhydroglucitol | human | 80 mg once daily, day 28, adjusted mean |  | change from baseline | -0.51 mg/L
O=C1Nc2cc3[nH]nc(-c4ccncc4)c3cc2CN1Cc1ccccc1 | RECIST v1.1 | human, relapsed or refractory advanced solid tumours | intravenous, 5.4 mg/kg, pooled schedules |  | complete response, best response | 0%
Cc1n[nH]c2ccc(-c3cc(OC[C@@H](N)Cc4ccccc4)cnc3-c3ccoc3)cc12 | kinase binding, competitor, MIB/MS competition, measured: MKK2 | Candida albicans cell lysate | 100 nM | reference: DMSO | log2 fold change | 0.148
COc1ncnn2ccc(-c3cnc4nc(C)n(Cc5nnc([C@@H](C)F)o5)c4c3)c12 |  | relapsed or refractory AML, MDS | dose not given, splicing factor mutation-negative |  | best overall response PR | 0%
CCOc1c([C@H](C)n2nc(C)c3c(N)ncnc32)cc(Cl)c(F)c1[C@@H]1CNC(=O)C1 | Olink proximity extension, measured: LAIR-2 | human FL or MZL patients, plasma | dose not given, week 8 day 1, once-daily dosing | reference: baseline | percent change in level | -46%
C[C@H]1C[C@H]2CSC(N)=N[C@@]2(c2nc(NC(=O)c3ccc(OC(F)F)cn3)cs2)CO1 | measured: Aβ1-40 | healthy adults, plasma | 160 mg single dose, 8 h post-dose | reference: placebo | percent change from baseline | -80.9%
C=CCn1c(=O)c2cnc(Nc3ccc(N4CCN(C)CC4)cc3)nc2n1-c1ccc2c(n1)[C@@](O)(CC)CC2 |  | ZR-75-1 xenograft, BALB/c nude mice | oral, 80 mg/kg, day 28, once daily days 0-21 and 25-27 |  | tumour growth inhibition | 22%
COc1ncc(-c2nc3c(n2C(C)C)[C@H](c2ccc(Cl)cc2)N(c2cc(Cl)cn(C)c2=O)C3=O)c(OC)n1 | International Working Group criteria | human acute myeloid leukemia patients | oral, 250 mg, response Unknown, high-dose, recommended dose for expansion |  | best overall response | 0%
CCO[C@H]1CCN(Cc2c(OC)cc(C)c3[nH]ccc23)[C@H](c2ccc(C(=O)O)cc2)C1 |  | PNH patients, blood | oral, 25 mg then 100 mg, week 2, mean absolute change | reference: baseline | C3d-positive type III RBCs | -0.7%
NC(=O)c1cnc2[nH]ccc2c1N[C@@H]1[C@@H]2CC3C[C@H]1C[C@@](O)(C3)C2 | CD4+ effector T cells, flow cytometry | Japanese humans, peripheral blood | 60 mg single dose | reference: baseline | percent change | 0.15%
Cc1c(C)n(Cc2cccc(OC(C)(C)C(=O)O)c2)c2ccc(C(=O)N[C@@H](C)c3ccc(C(C)(C)C)cc3)cc12 |  | C57BL/6 mouse, diet-induced obesity, L4 vertebra | dose not given |  | bone marrow fat volume | 0 mm3
N=C(N)NCCC[C@H](NC(=O)[C@H](CCCNC(=N)N)NC(=O)[C@H](CCCCN)NC(=O)[C@H](CCC(N)=O)NC(=O)[C@H](CCCCN)NC(=O)[C@H](Cc1ccc(O)cc1)NC(=O)[C@@H](N)CCCCN)C(=O)N[C@@H](CO)C(=O)N[C@@H](Cc1ccc(O)cc1)C(=O)N[C@@H](CCCCN)C(=O)O |  | dentin hypersensitivity patients aged 30-40 years | 5 µg/tooth, day 36, unit not given | reference: baseline | median VAS change | -52
COc1cc(O)c(CC=C(C)C)c(O)c1C(=O)/C=C/c1ccc(O)cc1 | glucose tolerance test | male Tac:SW conventional mice, high-fat diet | in diet, 60 mg/kg/day, 10 weeks, baseline |  | blood glucose | 133 mg/dL

A few entries again:
Structure (SMILES) | test | test system | conditions | scale | quantity | value
C=CCn1c(=O)c2cnc(Nc3ccc(N4CCN(C)CC4)cc3)nc2n1-c1ccc2c(n1)[C@@](O)(CC)CC2 |  | ZR-75-1 xenograft, BALB/c nude mice | oral, 80 mg/kg, day 28, once daily days 0-21 and 25-27 |  | tumour growth inhibition | 22%
